Published values gathered from unrelated publications.
Protocols differ between the studies behind these lines.
CSNK1A1: Casein kinase I isoform alpha (CSNK1A1, Homo sapiens, UniProt P48729)
UniProt P48729, sequence (whole entry, looked up): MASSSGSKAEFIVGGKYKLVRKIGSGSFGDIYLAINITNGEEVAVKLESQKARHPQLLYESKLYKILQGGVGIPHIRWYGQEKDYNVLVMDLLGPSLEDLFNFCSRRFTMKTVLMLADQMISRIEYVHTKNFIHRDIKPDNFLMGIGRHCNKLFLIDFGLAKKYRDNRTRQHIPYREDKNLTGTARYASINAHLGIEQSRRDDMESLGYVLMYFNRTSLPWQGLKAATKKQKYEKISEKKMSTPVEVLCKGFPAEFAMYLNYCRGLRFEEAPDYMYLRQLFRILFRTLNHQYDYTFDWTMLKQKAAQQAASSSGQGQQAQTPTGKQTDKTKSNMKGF
CA9: Carbonic anhydrase 9 (CA9, Homo sapiens, UniProt Q16790)
MTNR1A: Melatonin receptor type 1A (MTNR1A, Homo sapiens, UniProt P48039)
UniProt P48039, sequence (whole entry, looked up): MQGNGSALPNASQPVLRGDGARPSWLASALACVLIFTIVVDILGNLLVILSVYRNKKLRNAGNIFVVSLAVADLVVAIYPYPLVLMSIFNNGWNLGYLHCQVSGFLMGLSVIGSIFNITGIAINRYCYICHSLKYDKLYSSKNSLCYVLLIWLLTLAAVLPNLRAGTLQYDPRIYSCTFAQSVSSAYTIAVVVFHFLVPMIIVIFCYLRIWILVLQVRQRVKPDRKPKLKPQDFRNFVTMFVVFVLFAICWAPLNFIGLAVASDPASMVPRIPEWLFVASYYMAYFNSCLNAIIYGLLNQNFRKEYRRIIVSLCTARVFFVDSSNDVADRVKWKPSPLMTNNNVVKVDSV
CSNK1D: Casein kinase I isoform delta (CSNK1D, Homo sapiens, UniProt P48730)
UniProt P48730, sequence (whole entry, looked up): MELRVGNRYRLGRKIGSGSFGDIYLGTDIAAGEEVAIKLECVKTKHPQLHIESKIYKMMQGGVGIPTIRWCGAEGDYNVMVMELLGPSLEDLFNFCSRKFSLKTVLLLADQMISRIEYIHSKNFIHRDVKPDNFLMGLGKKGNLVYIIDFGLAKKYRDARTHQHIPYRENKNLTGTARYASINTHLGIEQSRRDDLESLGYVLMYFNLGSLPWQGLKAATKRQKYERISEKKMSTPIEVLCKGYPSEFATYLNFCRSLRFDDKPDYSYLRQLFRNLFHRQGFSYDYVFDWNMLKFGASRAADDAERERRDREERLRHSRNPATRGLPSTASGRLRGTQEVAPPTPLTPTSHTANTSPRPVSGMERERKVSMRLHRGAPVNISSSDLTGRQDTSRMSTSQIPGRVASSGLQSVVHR
UniProt P0DMS8, sequence (whole entry, unmodified, looked up): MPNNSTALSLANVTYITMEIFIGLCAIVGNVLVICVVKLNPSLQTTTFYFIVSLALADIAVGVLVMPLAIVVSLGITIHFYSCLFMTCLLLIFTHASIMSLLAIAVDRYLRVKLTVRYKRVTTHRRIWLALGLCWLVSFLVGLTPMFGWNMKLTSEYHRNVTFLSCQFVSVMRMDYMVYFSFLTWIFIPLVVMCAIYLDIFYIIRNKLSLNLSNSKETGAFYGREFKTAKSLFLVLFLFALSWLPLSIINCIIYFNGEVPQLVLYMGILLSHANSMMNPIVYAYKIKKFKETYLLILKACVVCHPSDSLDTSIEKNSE
UniProt O94804, sequence (whole entry, looked up): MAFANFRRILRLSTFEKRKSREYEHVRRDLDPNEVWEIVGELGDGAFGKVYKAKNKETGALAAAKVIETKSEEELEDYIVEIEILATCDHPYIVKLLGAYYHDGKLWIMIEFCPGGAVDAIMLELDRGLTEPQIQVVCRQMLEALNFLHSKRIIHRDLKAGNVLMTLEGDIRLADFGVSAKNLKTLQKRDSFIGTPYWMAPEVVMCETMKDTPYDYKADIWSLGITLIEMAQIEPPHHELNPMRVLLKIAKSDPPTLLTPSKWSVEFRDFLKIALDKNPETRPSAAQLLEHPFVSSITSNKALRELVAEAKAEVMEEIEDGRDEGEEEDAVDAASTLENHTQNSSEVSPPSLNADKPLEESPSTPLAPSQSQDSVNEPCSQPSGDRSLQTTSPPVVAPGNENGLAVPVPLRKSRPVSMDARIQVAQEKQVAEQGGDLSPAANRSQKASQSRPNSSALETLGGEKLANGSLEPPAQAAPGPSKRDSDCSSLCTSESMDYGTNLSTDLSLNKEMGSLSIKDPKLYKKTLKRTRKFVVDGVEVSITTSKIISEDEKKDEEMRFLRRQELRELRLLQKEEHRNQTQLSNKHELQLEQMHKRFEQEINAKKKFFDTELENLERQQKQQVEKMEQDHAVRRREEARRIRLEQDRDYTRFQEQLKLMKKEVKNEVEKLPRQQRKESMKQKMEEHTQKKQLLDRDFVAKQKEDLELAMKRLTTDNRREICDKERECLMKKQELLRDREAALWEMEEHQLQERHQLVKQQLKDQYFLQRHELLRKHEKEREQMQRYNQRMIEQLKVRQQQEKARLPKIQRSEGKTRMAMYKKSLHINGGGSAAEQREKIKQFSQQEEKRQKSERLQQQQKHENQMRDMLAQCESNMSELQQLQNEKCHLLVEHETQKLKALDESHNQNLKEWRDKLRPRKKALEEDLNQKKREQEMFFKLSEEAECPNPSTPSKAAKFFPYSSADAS
UniProt P08913, sequence (whole entry, looked up): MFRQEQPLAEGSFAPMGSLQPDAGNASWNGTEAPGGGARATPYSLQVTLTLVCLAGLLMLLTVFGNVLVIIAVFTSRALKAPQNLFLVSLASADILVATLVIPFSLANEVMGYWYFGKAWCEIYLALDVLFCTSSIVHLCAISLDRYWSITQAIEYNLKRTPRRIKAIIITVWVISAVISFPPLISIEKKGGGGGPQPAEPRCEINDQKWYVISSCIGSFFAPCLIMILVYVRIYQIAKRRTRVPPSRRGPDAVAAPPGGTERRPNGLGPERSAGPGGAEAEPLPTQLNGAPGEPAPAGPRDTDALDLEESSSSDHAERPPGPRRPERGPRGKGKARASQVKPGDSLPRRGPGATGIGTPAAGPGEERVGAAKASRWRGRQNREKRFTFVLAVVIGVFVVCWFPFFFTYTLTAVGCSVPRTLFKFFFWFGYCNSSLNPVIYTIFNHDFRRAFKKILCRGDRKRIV
UniProt Q16581, sequence (whole entry, looked up): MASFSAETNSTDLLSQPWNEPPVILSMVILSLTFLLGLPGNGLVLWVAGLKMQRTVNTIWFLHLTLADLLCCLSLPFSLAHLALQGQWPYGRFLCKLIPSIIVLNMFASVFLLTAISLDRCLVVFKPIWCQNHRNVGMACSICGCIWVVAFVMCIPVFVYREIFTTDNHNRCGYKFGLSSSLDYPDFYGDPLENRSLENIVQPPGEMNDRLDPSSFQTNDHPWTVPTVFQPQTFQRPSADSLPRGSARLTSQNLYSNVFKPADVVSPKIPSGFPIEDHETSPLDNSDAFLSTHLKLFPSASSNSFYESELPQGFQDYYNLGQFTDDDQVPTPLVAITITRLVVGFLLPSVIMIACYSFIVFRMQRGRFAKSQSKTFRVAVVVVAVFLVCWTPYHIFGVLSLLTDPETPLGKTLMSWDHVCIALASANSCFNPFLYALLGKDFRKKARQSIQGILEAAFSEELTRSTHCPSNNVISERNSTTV

Cc1cc(Oc2ncccc2CN2CCN(c3cc(Cl)cc(Cl)c3)CC2)ccc1-c1c(C)c(=O)[nH]c(=O)n1C — Ki (ADRA2A (Homo sapiens, UniProt P08913); ligand displacement, radioligand): 874 nM
CC(C)=CCNc1ncnc2c1ncn2[C@@H]1O[C@H](CO)[C@@H](O)[C@H]1O — EC50 (ADORA3 (Homo sapiens, UniProt P0DMS8, L264N); G protein activation, agonist): 1600 nM
Nc1ncnc2c1ncn2[C@@H]1O[C@H](COP(=O)(O)OP(=O)(O)OP(=O)(O)O)[C@@H](O)[C@H]1O — Kd (dnaA (Escherichia coli, UniProt P03004, E244K); binding): 30 nM
O=C(Nc1ccccc1)Nc1ccccn1 — Kd (CSNK1A1; binding, SPR): > 50000 nM
NS(=O)(=O)c1ccc(C(=O)Nc2ccc(Cl)cc2NC(=O)c2ccco2)cc1Cl — IC50 (CA9; enzyme activity, inhibitor): 282 nM
COc1ccc2c(c1)N(Cc1cc(C)ncn1)CCO2 — EC50 (MTNR1A; cAMP, agonist, luciferase): 2.06 nM
Cc1cnc(-c2ccc(-c3ccc(NC(=O)Nc4c(F)cc(F)cc4F)cc3F)c3c2C(=O)NC3)[nH]1 — Kd (STK10 (Homo sapiens, UniProt O94804); binding, competition with immobilised ligand): 0.1 nM
CCN1CCc2c(sc(NC(=O)c3ccc(OC)cc3OC)c2C(N)=O)C1 — Kd (CSNK1A1; binding, SPR): > 50000 nM
COc1cc(I)c2[nH]cc(CCNC(C)=O)c2c1 — EC50 (MTNR1A; GTPγS binding, agonist, radiometric; cell membranes): 468 nM
CNC(=O)c1ccc(-n2nc(C(=O)Nc3ccc(S(N)(=O)=O)cc3)cc2-c2ccco2)cc1 — IC50 (CA9; enzyme activity, inhibitor): 10 nM
c1ccc(-c2nnc(NCc3ccccn3)o2)cc1 — Kd (CSNK1A1; binding, SPR): > 50000 nM
Cc1ccc(S(N)(=O)=O)cc1C(=O)Nc1ccc(NC(=O)NCc2ccco2)cc1 — IC50 (CA9; enzyme activity, inhibitor): 97 nM
CN(C)c1ncnc2c1ncn2[C@@H]1O[C@H](CO)[C@@H](O)[C@H]1O — EC50 (ADORA3 (Homo sapiens, UniProt P0DMS8, I253Q/V169F); G protein activation, agonist): 21000 nM
COc1ccc2c(c1)N(Cc1ccc(C(N)=O)cc1)CCO2 — EC50 (MTNR1A; cAMP, agonist, luciferase): 0.249 nM
CC1CCN(C(CNC(=O)Nc2ccc(S(N)(=O)=O)cc2)c2cccs2)CC1 (stereo not shown) — IC50 (CA9; enzyme activity, inhibitor): 123 nM
COC(=O)c1ccc(N)cc1Cl — Kd (CSNK1D; binding, SPR): > 50000 nM
COC(=O)c1cc(Cn2cc(C)sc2=O)c(C)s1 — EC50 (MTNR1A; cAMP, agonist, luciferase): 495 nM
COc1ccc(-c2oc3ncnc(NCCCN4CCOCC4)c3c2-c2ccc(OC)cc2)cc1 — Kd (CSNK1A1; binding, SPR): > 50000 nM
COc1ccc2c(c1)N(Cc1ccnc(OC)n1)CCO2 — EC50 (MTNR1A; cAMP, agonist, luciferase): 136 nM
OCc1cccc2ccncc12 — Kd (CSNK1D; binding, SPR): > 50000 nM
NS(=O)(=O)c1ccc(C(=O)N2CCc3sccc3C2c2ccc(Cl)cc2)cc1[N+](=O)[O-] (stereo not shown) — IC50 (CA9; enzyme activity, inhibitor): 46 nM
CCOC(=O)c1cccnc1N(C)CCc1cnccn1 — EC50 (MTNR1A; cAMP, agonist, luciferase): 2790 nM
NS(=O)(=O)c1ccc(Br)c(C(=O)Nc2cccc(NC(=O)c3ccco3)c2)c1 — IC50 (CA9; enzyme activity, inhibitor): 92 nM
O=c1[nH]c(=O)c2c[nH]nc2[nH]1 — Kd (CSNK1A1; binding, SPR): > 50000 nM
CC(C)C[C@H](NC(=O)[C@@H](N)[C@@H](C)O)C(=O)N[C@@H](CCC(N)=O)C(=O)N1CCC[C@H]1C(=O)N1CCC[C@H]1C(=O)N[C@@H](C)C(=O)N[C@@H](CO)C(=O)N[C@@H](CO)C(=O)N[C@@H](CCCNC(=N)N)C(=O)N[C@H](CCCNC(=N)N)C(=O)N[C@@H](CCCNC(=N)N)C(=O)N[C@@H](Cc1c[nH]cn1)C(=O)N[C@@H](Cc1ccccc1)C(=O)N[C@@H](Cc1c[nH]cn1)C(=O)N[C@@H](Cc1c[nH]cn1)C(=O)N[C@@H](C)C(=O)N[C@@H](CC(C)C)C(=O)N1CCC[C@H]1C(=O)N1CCC[C@H]1C(=O)N[C@H](C)C(=O)N[C@@H](CCCNC(=N)N)C(=O)O — EC50 (C3AR1 (Homo sapiens, UniProt Q16581); β-arrestin recruitment, agonist): 87 nM
COc1c(F)cc(F)cc1NCc1ccc(-c2ccn[nH]2)o1 — EC50 (MTNR1A; cAMP, agonist, luciferase): 102 nM
Cn1cc(-c2ccc3oc(C(=O)NC4CCCN(CC(=O)Nc5ccc(S(N)(=O)=O)cc5)C4)cc3c2)nn1 (stereo not shown) — IC50 (CA9; enzyme activity, inhibitor): 33.1 nM
COc1ccc(CN(C)C(=O)c2ccnc(OC(F)F)c2)cc1 — EC50 (MTNR1A; cAMP, agonist, luciferase): 9.73 nM
Cc1ccc(NC(=O)Nc2cccc3c2CCN(C(=O)c2ccc(S(N)(=O)=O)c(C)c2)C3)cc1 — IC50 (CA9; enzyme activity, inhibitor): 38 nM
Cc1n[nH]c(N)c1-c1ccccc1 — Kd (CSNK1D; binding, SPR): > 50000 nM
COc1cc(Br)c(Cn2ccn3c(=O)cc(C)nc23)cc1OC — EC50 (MTNR1A; cAMP, agonist, luciferase): 153 nM
